Results of several laboratories.
Lines come from different studies, so protocols differ. Values joined by “and” are separate records of one study, mostly repeats; a detail may differ. ± gives the spread as reported.
FLP: Female-specific lacrimal gland protein (FLP, Mesocricetus auratus, UniProt Q99MG7)
Chain of UniProt Q99MG7 (whole entry, looked up): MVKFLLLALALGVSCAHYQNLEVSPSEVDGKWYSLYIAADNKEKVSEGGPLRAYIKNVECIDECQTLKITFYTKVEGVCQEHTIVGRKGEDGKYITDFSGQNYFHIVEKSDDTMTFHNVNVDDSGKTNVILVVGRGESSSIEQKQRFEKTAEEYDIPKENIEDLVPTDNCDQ
CYP2E1: Cytochrome P450 2E1 (CYP2E1, Homo sapiens, UniProt P05181)
Chain of UniProt P05181 (whole entry, looked up): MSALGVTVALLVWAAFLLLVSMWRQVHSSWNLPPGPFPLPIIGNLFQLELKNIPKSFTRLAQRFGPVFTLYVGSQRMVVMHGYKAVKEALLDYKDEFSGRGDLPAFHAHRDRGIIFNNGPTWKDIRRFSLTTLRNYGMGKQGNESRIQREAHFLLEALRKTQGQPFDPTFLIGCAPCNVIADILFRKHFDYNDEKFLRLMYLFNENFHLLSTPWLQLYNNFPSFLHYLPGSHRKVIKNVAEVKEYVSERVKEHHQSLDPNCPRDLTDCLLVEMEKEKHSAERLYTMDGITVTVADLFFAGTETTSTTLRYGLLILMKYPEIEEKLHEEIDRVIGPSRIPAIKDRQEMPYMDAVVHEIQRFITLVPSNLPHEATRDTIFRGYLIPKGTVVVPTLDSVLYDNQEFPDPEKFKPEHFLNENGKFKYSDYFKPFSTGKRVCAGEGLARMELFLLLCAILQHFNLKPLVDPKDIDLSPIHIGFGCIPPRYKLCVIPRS
SHMT1: Serine hydroxymethyltransferase, cytosolic (SHMT1, Homo sapiens, UniProt P34896)
Chain of UniProt P34896 (whole entry, looked up): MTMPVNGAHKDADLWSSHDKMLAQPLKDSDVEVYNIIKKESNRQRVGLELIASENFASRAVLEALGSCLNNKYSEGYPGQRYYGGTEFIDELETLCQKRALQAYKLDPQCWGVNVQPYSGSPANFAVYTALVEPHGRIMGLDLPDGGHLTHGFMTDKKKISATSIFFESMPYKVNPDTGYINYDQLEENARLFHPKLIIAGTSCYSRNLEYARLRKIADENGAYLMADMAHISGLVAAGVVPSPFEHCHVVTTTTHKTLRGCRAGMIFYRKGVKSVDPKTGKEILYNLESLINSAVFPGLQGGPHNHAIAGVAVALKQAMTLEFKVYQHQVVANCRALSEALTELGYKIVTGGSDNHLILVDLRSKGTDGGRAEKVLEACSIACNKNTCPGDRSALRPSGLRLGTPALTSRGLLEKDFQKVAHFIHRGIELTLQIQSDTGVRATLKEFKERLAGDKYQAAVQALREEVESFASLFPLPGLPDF
Lrrk2: Leucine-rich repeat serine/threonine-protein kinase 2 (Lrrk2, Mus musculus, UniProt Q5S006)
Chain of UniProt Q5S006 (whole entry, looked up): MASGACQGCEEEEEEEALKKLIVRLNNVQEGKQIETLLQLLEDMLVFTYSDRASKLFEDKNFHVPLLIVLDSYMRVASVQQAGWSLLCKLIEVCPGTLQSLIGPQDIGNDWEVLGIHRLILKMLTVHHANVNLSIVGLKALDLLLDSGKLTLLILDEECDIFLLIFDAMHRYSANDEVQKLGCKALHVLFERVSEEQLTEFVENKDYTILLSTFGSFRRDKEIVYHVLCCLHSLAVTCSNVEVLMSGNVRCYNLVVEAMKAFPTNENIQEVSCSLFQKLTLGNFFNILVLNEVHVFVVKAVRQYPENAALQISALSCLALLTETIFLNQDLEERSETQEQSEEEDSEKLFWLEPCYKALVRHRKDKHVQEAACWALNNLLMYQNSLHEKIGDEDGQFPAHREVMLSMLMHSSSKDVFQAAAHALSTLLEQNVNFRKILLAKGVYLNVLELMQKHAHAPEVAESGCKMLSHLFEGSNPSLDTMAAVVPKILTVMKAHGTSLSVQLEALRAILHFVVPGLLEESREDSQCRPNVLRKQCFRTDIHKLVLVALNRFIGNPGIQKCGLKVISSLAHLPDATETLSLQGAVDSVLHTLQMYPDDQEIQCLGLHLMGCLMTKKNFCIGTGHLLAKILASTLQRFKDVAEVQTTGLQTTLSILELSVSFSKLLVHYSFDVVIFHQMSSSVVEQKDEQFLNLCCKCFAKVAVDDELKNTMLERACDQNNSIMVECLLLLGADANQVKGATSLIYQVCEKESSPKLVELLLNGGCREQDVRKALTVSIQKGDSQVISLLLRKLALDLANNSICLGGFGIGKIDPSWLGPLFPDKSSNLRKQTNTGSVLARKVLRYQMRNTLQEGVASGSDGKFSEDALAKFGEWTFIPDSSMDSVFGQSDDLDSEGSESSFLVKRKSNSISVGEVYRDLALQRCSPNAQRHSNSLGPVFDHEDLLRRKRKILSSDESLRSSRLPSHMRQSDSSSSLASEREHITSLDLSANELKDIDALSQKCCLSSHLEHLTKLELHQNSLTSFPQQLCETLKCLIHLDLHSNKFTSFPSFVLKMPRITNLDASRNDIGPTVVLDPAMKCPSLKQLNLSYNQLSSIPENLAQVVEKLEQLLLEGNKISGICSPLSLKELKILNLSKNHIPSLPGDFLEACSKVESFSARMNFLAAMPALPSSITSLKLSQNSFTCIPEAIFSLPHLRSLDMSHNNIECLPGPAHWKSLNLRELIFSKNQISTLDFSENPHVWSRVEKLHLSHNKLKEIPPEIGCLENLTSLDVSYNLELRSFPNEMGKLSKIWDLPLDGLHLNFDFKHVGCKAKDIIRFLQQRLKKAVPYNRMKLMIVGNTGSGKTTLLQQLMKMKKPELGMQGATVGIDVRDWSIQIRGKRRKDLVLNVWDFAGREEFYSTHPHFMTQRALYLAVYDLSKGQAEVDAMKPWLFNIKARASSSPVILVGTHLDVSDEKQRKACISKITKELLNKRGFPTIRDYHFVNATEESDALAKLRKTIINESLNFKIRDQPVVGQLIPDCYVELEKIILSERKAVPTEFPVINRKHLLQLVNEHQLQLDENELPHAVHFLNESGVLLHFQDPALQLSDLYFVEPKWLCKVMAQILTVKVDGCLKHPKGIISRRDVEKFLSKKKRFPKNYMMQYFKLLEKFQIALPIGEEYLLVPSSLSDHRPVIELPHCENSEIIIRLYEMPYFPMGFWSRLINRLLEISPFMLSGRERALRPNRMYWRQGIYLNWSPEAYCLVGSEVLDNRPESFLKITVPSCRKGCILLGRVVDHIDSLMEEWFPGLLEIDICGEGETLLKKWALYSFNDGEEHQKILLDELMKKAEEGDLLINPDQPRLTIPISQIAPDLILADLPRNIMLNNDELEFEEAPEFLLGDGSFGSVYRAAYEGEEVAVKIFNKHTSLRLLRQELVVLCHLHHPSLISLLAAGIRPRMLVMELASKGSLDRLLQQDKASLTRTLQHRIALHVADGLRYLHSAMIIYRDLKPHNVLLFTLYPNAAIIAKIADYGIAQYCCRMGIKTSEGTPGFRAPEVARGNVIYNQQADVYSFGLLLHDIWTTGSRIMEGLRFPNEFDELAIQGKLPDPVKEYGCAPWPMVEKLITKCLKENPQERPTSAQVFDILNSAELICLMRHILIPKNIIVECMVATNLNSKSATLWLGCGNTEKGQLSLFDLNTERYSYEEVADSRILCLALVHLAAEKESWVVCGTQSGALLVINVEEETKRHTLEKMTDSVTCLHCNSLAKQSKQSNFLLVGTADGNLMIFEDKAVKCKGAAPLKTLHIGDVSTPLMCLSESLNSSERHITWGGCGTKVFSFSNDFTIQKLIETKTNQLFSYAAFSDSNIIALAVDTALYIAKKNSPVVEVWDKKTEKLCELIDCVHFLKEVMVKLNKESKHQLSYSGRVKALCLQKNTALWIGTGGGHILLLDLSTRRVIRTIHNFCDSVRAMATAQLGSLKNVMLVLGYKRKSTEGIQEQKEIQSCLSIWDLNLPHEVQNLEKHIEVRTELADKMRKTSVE
sfhI: sfhI (Serratia fonticola, UniProt Q9RMI1)
Chain of UniProt Q8TF42 (whole entry, looked up): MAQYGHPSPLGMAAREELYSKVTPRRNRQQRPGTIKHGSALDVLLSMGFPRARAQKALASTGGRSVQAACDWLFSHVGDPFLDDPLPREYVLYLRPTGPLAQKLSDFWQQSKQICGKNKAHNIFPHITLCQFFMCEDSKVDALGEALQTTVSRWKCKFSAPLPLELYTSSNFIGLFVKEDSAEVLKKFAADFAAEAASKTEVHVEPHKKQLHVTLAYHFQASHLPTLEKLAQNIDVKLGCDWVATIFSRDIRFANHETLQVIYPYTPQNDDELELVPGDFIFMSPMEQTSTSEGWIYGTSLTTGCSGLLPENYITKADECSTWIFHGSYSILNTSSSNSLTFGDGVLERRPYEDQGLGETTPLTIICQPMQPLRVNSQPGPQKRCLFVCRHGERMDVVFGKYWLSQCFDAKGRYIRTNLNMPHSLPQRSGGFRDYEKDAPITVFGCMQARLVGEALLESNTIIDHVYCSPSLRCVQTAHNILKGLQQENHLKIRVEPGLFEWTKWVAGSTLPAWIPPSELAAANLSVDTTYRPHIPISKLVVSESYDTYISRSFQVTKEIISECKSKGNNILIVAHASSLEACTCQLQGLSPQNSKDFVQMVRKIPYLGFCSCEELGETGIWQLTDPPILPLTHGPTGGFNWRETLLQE
Chain of UniProt Q16696 (whole entry, looked up): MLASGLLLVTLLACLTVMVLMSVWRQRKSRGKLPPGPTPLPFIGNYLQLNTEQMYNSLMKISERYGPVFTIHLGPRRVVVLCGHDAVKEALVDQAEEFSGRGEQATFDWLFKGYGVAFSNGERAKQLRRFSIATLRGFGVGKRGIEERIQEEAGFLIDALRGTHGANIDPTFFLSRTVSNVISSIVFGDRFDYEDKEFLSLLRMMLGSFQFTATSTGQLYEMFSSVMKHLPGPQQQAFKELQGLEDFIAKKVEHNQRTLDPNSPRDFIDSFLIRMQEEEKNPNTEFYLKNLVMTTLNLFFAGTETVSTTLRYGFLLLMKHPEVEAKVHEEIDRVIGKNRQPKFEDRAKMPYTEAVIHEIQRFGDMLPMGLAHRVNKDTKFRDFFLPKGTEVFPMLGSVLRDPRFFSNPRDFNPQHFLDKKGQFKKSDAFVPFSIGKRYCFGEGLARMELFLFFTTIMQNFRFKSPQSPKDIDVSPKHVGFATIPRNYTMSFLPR
Chain of UniProt Q5U3Y7 (whole entry, looked up): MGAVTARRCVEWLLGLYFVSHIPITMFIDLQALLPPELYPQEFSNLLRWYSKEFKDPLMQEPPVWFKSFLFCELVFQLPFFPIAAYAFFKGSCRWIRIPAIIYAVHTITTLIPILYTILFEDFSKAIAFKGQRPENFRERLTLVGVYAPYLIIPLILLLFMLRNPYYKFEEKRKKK

CCCN(CCC1(O)CC(NC(=O)c2ccccc2)C1)[C@H]1CCc2nc(N)sc2C1 (stereo in doubt)
Ki (dopamine D2-like receptor, rat; radioligand binding; rat striatal membranes; high-affinity component, together with: [3H]spiperone): 0.224 ± 0.009 µM

OC[C@H]1O[C@@H](n2cnc3c(NC(C4CCC4)C4CCC4)ncnc32)[C@H](O)C1O (stereo in doubt)
Ki (off-target receptors and transporters, human; radioligand binding; PDSP screen): > 1 µM

CCCN(CCC1(O)CC(NC(=O)c2ccc(F)c(Cl)c2)C1)[C@H]1CCc2nc(N)sc2C1 (stereo in doubt)
Ki (dopamine D2-like receptor, rat; radioligand binding; rat striatal membranes; high-affinity component, together with: [3H]spiperone): 6.95 ± 1.09 µM

O=c1cc[nH]c(=S)[nH]1
Ki (uracil transporter; uracil uptake, inhibitor; Trypanosoma brucei brucei, bloodstream form; 30 s, together with: 0.15 µM [3H]-uracil): 700 ± 130 µM

O=C(OCc1ccccc1)c1ccccc1
Ki (FLP; binding, fluorescence displacement; together with: 1-NPN 2 µM): 6.43 µM

O=c1ccn([C@H]2C[C@H](O)[C@@H](CO)O2)c(=O)[nH]1
Ki (uracil transporter; uracil uptake, inhibitor; Trypanosoma brucei brucei, bloodstream form; 30 s, together with: 0.15 µM [3H]-uracil): 1150 ± 340 µM

CCCCCCCCCC=O
Ki (FLP; binding, fluorescence displacement; together with: 1-NPN 2 µM): 1.15 µM

CCCCCCCCCCC=O
Ki (CYP2E1; competitive inhibitor; human liver S9; 30 min, pH 7.4, together with: p-nitrophenol substrate): 117 ± 15 µM

Fc1ccc(N2CCN(CCCCn3ccc4ccccc43)CC2)cc1
Ki (Sigma intracellular receptor 2 (Tmem97, Rattus norvegicus, UniProt Q5U3Y7); ligand displacement, radioligand): 0.0133 µM

CN(Cc1cnc2nc(N)nc(N)c2n1)c1ccc(C(=O)N[C@@H](CCC(=O)O)C(=O)O)cc1
Ki (SHMT1; enzyme activity, absorbance; pH 7.2): 201 µM

CC1=NN(c2ccc(C(=O)O)cc2)C(=O)/C1=C/c1ccc(-c2cc(C)c(C)cc2[N+](=O)[O-])o1
Ki (Histone acetyltransferase KAT8 (KAT8, Homo sapiens, UniProt Q9H7Z6); enzyme activity, inhibitor; up to 400 µM, together with: 4 µM acetyl-CoA, 60 µM histone substrate): no inhibition

Nc1ncnc2c1ncn2[C@@H]1O[C@H](COP(=O)(O)O)[C@@H](O)[C@H]1O
Ki (Lrrk2; enzyme activity, inhibitor): 2200 µM

Nc1ncnc2c1ncn2[C@@H]1O[C@H](COP(=O)(O)OP(=O)(O)OP(=O)(O)O)[C@@H](O)[C@H]1O
Ki (GTP:AMP phosphotransferase AK3, mitochondrial (AK3, Homo sapiens, UniProt Q9UIJ7); inhibitor): 1700 µM

CCCN(CCC1(O)CC(NC(=O)c2ccccc2OC)C1)[C@H]1CCc2nc(N)sc2C1 (stereo in doubt)
Ki (dopamine D2-like receptor, rat; radioligand binding; rat striatal membranes; high-affinity component, together with: [3H]spiperone): 0.158 ± 0.025 µM

CC(C)=CCC/C(C)=C/CO
Ki (FLP; binding, fluorescence displacement; together with: 1-NPN 2 µM): 1.1 µM

O=C1C(=NNc2ccc(S(=O)(=O)O)cc2)C(c2ccc([N+](=O)[O-])cc2)=NN1c1ccccc1
Ki (Ubiquitin-associated and SH3 domain-containing protein B (UBASH3B, Homo sapiens, UniProt Q8TF42); enzyme activity, inhibitor, absorbance): 1.05 µM and 1 µM

O=c1[nH]ccc(=S)[nH]1
Ki (uracil transporter; uracil uptake, inhibitor; Trypanosoma brucei brucei, bloodstream form; 30 s, together with: 0.15 µM [3H]-uracil): 159 ± 24 µM

C=Cc1ccc(O)cc1
Ki (CYP2E1; inhibitor; 30 min, pH 7.4): 230 µM

Cc1nc2ccc(CN(C)c3ccc(C(=O)N[C@@H](CCC(=O)O)C(=O)O)s3)cc2c(=O)[nH]1
Ki (SHMT1; enzyme activity, absorbance; pH 7.2): 122 µM

Nc1ncnc2c1ncn2[C@@H]1O[C@H](COP(=O)(O)OP(=O)(O)C(Cl)(Cl)P(=O)(O)O)[C@@H](O)[C@H]1O
Ki (Tyrosine-protein kinase JAK3 (JAK3, Homo sapiens, UniProt P52333); enzyme activity, inhibitor): 0.004 to 0.011 µM

Nc1ncnc2c1ncn2[C@@H]1O[C@H](COP(=O)(O)OP(=O)(O)O)[C@@H](O)[C@H]1O
Ki (Lrrk2; enzyme activity, inhibitor, radiometric; Ki,e, together with: LRRKtide substrate varied): 100 ± 10 µM

[Ca+2]
Ki (Cyclic nucleotide-gated channel alpha-2 (CNGA2, Bos taurus, UniProt Q03041, E340G); single-channel current, blocker, outside-out patch; E340G mutant, -80 mV, together with: cGMP 1 mM): 8800 µM

Nc1ncnc2c1ncn2[C@@H]1O[C@H](COP(=O)(O)OP(=O)(O)NP(=O)(O)O)[C@@H](O)[C@H]1O
Ki (Lrrk2; enzyme activity, inhibitor, TR-FRET; Ki,e, together with: ATP varied, PLK-peptide substrate): 300 ± 30 µM

CC(C)[C@@H]1CC[C@@H](C)C[C@H]1O
Ki (Cytochrome P450 2A13 (Homo sapiens, UniProt Q16696); enzyme activity, inhibitor; 10 min, pH 7.4): 8.2 µM and 8.17 µM

O=c1c(-c2ccc(O)cc2)coc2cc(O)cc(O)c12
Ki (Cyclic nucleotide-gated channel alpha-1 (CNGA1, Bos taurus, UniProt Q00194); ion current, inhibitor, inside-out patch clamp; Xenopus oocytes; fully activated channels, together with: cGMP 2 mM): 72.5 µM

CN(C)CCC=C1c2ccccc2C=Cc2ccccc21
Ki (5-hydroxytryptamine receptor 2A (HTR2A, Homo sapiens, UniProt P28223); ligand displacement, radioligand): 0.029 µM

CCCN(CCC1(O)CC(NS(=O)(=O)c2ccccc2F)C1)[C@H]1CCc2nc(N)sc2C1 (stereo in doubt)
Ki (dopamine D2-like receptor, rat; radioligand binding; rat striatal membranes; high-affinity component, together with: [3H]spiperone): 0.619 ± 0.068 µM

Sc1ncccn1
Ki (uracil transporter; uracil uptake, inhibitor; Trypanosoma brucei brucei, bloodstream form; 30 s, together with: 0.15 µM [3H]-uracil): 1640 ± 510 µM

CCOC(=O)[C@]1(CS)N[C@H](C(=O)O)CS1
Ki (sfhI; enzyme activity, inhibitor; pH 7.5, 30 °C, together with: imipenem substrate): 0.16 ± 0.03 µM

CC[N+](CC)(CC)CC
Ki (Sh (Drosophila melanogaster, UniProt P08510, C301S/C308S/del6-46); potassium current, blocker, voltage clamp; Xenopus oocytes; 50 mV holding potential): 33500 ± 8900 µM

CC(=O)N[C@@H](CS)C(=O)O
Ki (Myeloperoxidase (MPO, Homo sapiens, UniProt P05164); enzyme activity, inhibitor): 0.1 µM

NCCCNc1ncnc2c1ncn2[C@@H]1O[C@H](CN(CC#Cc2cccc(C(N)=O)c2)CC[C@H](N)C(=O)O)[C@@H](O)[C@H]1O
Ki (Nicotinamide N-methyltransferase (NNMT, Homo sapiens, UniProt P40261); ligand displacement, FP): 0.31 µM

Cc1c[nH]c(=O)[nH]c1=O
Ki (uracil transporter; uracil uptake, inhibitor; Trypanosoma brucei brucei, bloodstream form; 30 s, together with: 0.15 µM [3H]-uracil): > 2500 µM

O=C(O)C(CCc1ccccc1)[C@@H]1CCN[C@H]1C(=O)O (relative stereo)
Ki (native NMDA receptors; binding, radioligand displacement; rat cortical synaptosomes; together with: [3H]CGP ligand): > 100 µM

CC(C)CCCC(C)CCO (stereo not drawn)
Ki (FLP; binding, fluorescence displacement; together with: 1-NPN 2 µM): 0.39 µM

O=C1C(=O)N(Cc2ccc(Cc3ccc(CN4C(=O)C(=O)c5ccccc54)cc3)cc2)c2ccccc21
Ki (Replicase polyprotein 1ab, main protease (Feline coronavirus, UniProt Q98VG9); enzyme activity, inhibitor, fluorescence): 5.8 µM

OC[C@@H]1[C@@H](O)[C@H](O)[C@@H](O)[C@@H]2O[C@H]12
Ki (Lysosomal acid glucosylceramidase (GBA1, Homo sapiens, UniProt P04062, R534H); enzyme activity, irreversible inhibitor; pH 5.2, 37 °C, together with: 2,4-DNP-β-Glc): 9.2 µM and 9 µM

CCCCCCCCCCCCNC(=O)[C@@H]1CCCN1C(=O)[C@@H]1CCCN1
Ki (Coagulation factor XI (F11, Homo sapiens, UniProt P03951); enzyme activity, inhibitor): > 1000 µM

CCCN(CC[C@]1(O)C[C@@H](NC(=O)c2cccc(-c3noc(C)n3)c2)C1)[C@H]1CCc2nc(N)sc2C1 (relative stereo)
Ki (dopamine D2-like receptor, rat; radioligand binding; rat striatal membranes; high-affinity component, together with: [3H]spiperone): 15.8 ± 5.91 µM

C=CC(C)CCCC(C)(C)O (stereo not drawn)
Ki (FLP; binding, fluorescence displacement; together with: 1-NPN 2 µM): 8 µM

CCCN(CCC1(O)CC(NC(=O)c2ccc(-c3noc(C)n3)cc2)C1)[C@H]1CCc2nc(N)sc2C1 (stereo in doubt)
Ki (dopamine D2-like receptor, rat; radioligand binding; rat striatal membranes; high-affinity component, together with: [3H]spiperone): 14.6 ± 1.28 µM

O=C(O)c1cc(=O)[nH]c(=O)[nH]1
Ki (uracil transporter; uracil uptake, inhibitor; Trypanosoma brucei brucei, bloodstream form; 30 s, together with: 0.15 µM [3H]-uracil): 630 ± 48 µM

CCCN(CCC1(O)CC(NC(=O)c2ccccc2F)C1)[C@H]1CCc2nc(N)sc2C1 (stereo in doubt)
Ki (dopamine D2-like receptor, rat; radioligand binding; rat striatal membranes; high-affinity component, together with: [3H]spiperone): 17 ± 4.09 µM

CCCCCCC/C=C/C=O
Ki (CYP2E1; competitive inhibitor; human liver S9; 30 min, pH 7.4, together with: p-nitrophenol substrate): 3.3 ± 0.1 µM

Cc1cc(=O)[nH]c(=O)[nH]1
Ki (uracil transporter; uracil uptake, inhibitor; Trypanosoma brucei brucei, bloodstream form; 30 s, together with: 0.15 µM [3H]-uracil): > 5000 µM

CCCCCCCCCCCC=O
Ki (CYP2E1; competitive inhibitor; human liver S9; 30 min, pH 7.4, together with: p-nitrophenol substrate): 85 ± 8 µM

CCCN(CCC1(O)CC(NS(=O)(=O)c2cccc(F)c2)C1)[C@H]1CCc2nc(N)sc2C1 (stereo in doubt)
Ki (dopamine D2-like receptor, rat; radioligand binding; rat striatal membranes; high-affinity component, together with: [3H]spiperone): 0.11 ± 0.014 µM

CCOC(=O)[C@@]1(CS)N[C@H](C(=O)O)C(C)(C)S1
Ki (sfhI; enzyme activity, inhibitor; pH 7.5, 30 °C, together with: imipenem substrate): 100 ± 10 µM
